Experimental data gathered from unrelated publications.
Compare with care: the assays were run in different laboratories. ± gives the spread as reported.

SMILES	target or system	assay	system	conditions	quantity	value
CN[C@@H]1[C@H](O)[C@H](NC)[C@H]2O[C@]3(O)[C@H](O[C@@H]2[C@H]1O)O[C@H](C)C[C@H]3NC(=O)Cc1ccccn1	Burkholderia cepacia	microbial growth, broth dilution	ATCC25416	–	MIC	> 200 µg/mL
Cc1ccc(CNC(=O)Cc2c(C)nc3ccc(C)cn23)cc1	Mycobacteroides chelonae	microbial growth	–	72 h	MIC	> 50 µM
O=C1NC2(CC2)COc2ncc(F)cc2[C@H]2COCCN2c2ccn3ncc1c3n2	–	–	Sprague-Dawley rat, female, thymus	oral, 20 mg/kg/day, 4 weeks	organ weight	0.517 ± 0.129 g
C=CCO/N=C(\C(=O)N[C@@H]1C(=O)N(OS(=O)(=O)O)C1(C)C)c1nsc(N)n1	Salmonella enterica Typhi	agar dilution	susceptible	–	MIC	0.5 µg/mL
Cc1ccc2nc(C)c(C(=O)NCc3ccccc3)n2c1	Mycobacteroides chelonae	microbial growth	–	72 h	MIC	94.4 µM
CN[C@@H]1[C@H](O)[C@H](NC)[C@H]2O[C@]3(O)[C@H](O[C@@H]2[C@H]1O)O[C@H](C)C[C@H]3NC(=O)Cc1cscn1	Burkholderia cepacia	microbial growth, broth dilution	ATCC25416	–	MIC	> 200 µg/mL
CCCCCCCCCCCCCC(=O)N[C@H](CCN)C(=O)N[C@@H]1C(=O)N[C@@H](CCN)C(=O)N[C@@H](CC(C)C)C(=O)N[C@@H](CCN)C(=O)N[C@H](Cc2ccccc2)C(=O)N[C@@H](CC(C)C)C(=O)N[C@@H](CCN)C(=O)N[C@H](CCN)C(=O)N[C@@H](C(C)C)C(=O)N[C@@H](CC(=O)O)C(=O)O[C@@H]1C	Burkholderia cepacia	–	intrinsically colistin-resistant	–	MIC	64 µg/mL
CN[C@@H]1[C@H](O)[C@H](NC)[C@H]2O[C@]3(O)[C@H](O[C@@H]2[C@H]1O)O[C@H](C)C[C@H]3NC(=O)Cc1ccc(F)cn1	Mycolicibacterium fortuitum	microbial growth	ATCC6841	–	MIC	50 µg/mL
CC[C@H](C)[C@H](NC(=O)[C@H](CCCCN)NC(=O)[C@@H](NC(=O)[C@@H](NC(=O)[C@H](CC(C)C)NC(=O)[C@H](CCCNC(=N)N)NC(=O)[C@@H](NC(=O)[C@H](CC(C)C)NC(=O)[C@H](CCCNC(=N)N)NC(=O)CNC(=O)[C@H](Cc1ccccc1)NC(=O)[C@@H](N)CCCNC(=N)N)[C@@H](C)CC)[C@@H](C)CC)C(C)C)C(=O)N[C@@H](C)C(=O)N[C@@H](CCCNC(=N)N)C(=O)N[C@@H](CCCNC(=N)N)C(=O)N[C@@H](C)C(=O)N[C@@H](Cc1c[nH]cn1)C(=O)N[C@@H](CCCNC(=N)N)C(=O)N[C@@H](C)C(=O)N[C@@H](CCCNC(=N)N)C(=O)N1CCC[C@H]1C(=O)N[C@@H](C)C(=O)N[C@H](C(=O)N[C@@H](CCCCN)C(=O)N[C@@H](C)C(=O)N[C@@H](C)C(=O)N[C@@H](CO)C(=O)N[C@@H](CC(N)=O)C(=O)N[C@H](C(=O)N[C@@H](C)C(=O)N[C@@H](CCC(=O)O)C(=O)N[C@@H](CC(C)C)C(=O)N[C@@H](C)C(=O)N[C@@H](Cc1c[nH]cn1)C(=O)NCC(=O)N[C@@H](CCC(=O)O)C(N)=O)C(C)C)C(C)C	Klebsiella pneumoniae	bacterial growth, broth microdilution	cation-adjusted Mueller Hinton broth	18 h, 37 °C	MIC	> 7.99 µM
CC1(C)[C@H](NC(=O)/C(=N\OC2(C(=O)O)CC2)c2nsc(N)n2)C(=O)N1OS(=O)(=O)O	Salmonella enterica Typhi	agar dilution	susceptible	–	MIC	0.5 µg/mL
Cc1ccc2nc(C)c(C(=O)C(=O)NCc3ccccc3)n2c1	Mycobacteroides chelonae	microbial growth	–	72 h	MIC	> 128 µM
CC1(C)[C@H](NC(=O)/C(=N\OC2(C(=O)O)CCCCC2)c2csc(N)n2)C(=O)N1OS(=O)(=O)O	Salmonella enterica Typhi	agar dilution	susceptible	–	MIC	4 µg/mL
CCc1ccn2c(C(=O)NCc3ccc(C)cc3)c(C)nc2c1	Mycobacteroides chelonae	microbial growth	–	72 h	MIC	> 50 µM
CC1(C)[C@H](NC(=O)/C(=N\OCC(=O)N2CCC[C@@H]2C(=O)O)c2nsc(N)n2)C(=O)N1OS(=O)(=O)O	Salmonella enterica Typhi	agar dilution	susceptible	–	MIC	1 µg/mL
CN[C@@H]1[C@H](O)[C@H](NC)[C@H]2O[C@]3(O)[C@H](O[C@@H]2[C@H]1O)O[C@H](C)C[C@H]3NC(=O)Cc1ccc(Cl)cn1	Burkholderia cepacia	microbial growth, broth dilution	ATCC25416	–	MIC	> 200 µg/mL

Repeated from above:
SMILES	target or system	assay	system	conditions	quantity	value
CN[C@@H]1[C@H](O)[C@H](NC)[C@H]2O[C@]3(O)[C@H](O[C@@H]2[C@H]1O)O[C@H](C)C[C@H]3NC(=O)Cc1ccccn1	Burkholderia cepacia	microbial growth, broth dilution	ATCC25416	–	MIC	> 200 µg/mL
